Measured values gathered from unrelated publications.
Each line is one published result; not all experiments were run side by side. Values joined by “and” are separate records of one study, mostly repeats; a detail may differ. ± gives the spread as reported.

For O=C(C[Se]C(=O)c1ccco1)Nc1cccc(C(F)(F)F)c1, the mean TGI was 14.7 µM (NCI60 prostate subpanel (PC-3, DU-145); total growth inhibition, inhibitor; five-dose).
For CC(C)[C@H](NC(=O)[C@H](CCCNC(=N)N)NC(=O)[C@@H]1CCCN1C(=O)[C@@H](NC(=O)[C@H](C)NC(=O)[C@H](Cc1ccc(O)cc1)NC(=O)[C@H](CCC(N)=O)NC(=O)[C@H](CCCCN)NC(=O)[C@H](CCCNC(=N)N)NC(=O)[C@@H]1CCCN1C(=O)[C@H](CCC(=O)O)NC(=O)[C@@H](NC(=O)[C@H](C)N)[C@@H](C)O)[C@@H](C)O)C(=O)N[C@@H](Cc1ccccc1)C(=O)N[C@@H](Cc1c[nH]c2ccccc12)C(=O)N[C@H](C(=O)N[C@@H](CC(=O)O)C(=O)N[C@@H](C)C(=O)N1CCC[C@H]1C(=O)NCC(=O)NCCOCCOCCOCCOCCOCCOCCOCCOCCOCCOCCOCCOCCC(=O)N[C@@H](CS)C(N)=O)[C@@H](C)O, the selectivity ratio was 10 ± 5.3 (H157 lung squamous carcinoma; cell binding, phage binding, measured: output/input phage; 10 min, 37 °C; baseline: control phage).
With O=C(C[Se]C(=O)c1ccccc1)Nc1cccc(C(F)(F)F)c1 the CC50 was 13.9 µM (NCI60 ovarian subpanel; cytotoxicity, inhibitor; five-dose).
CC1CCC2C(C)C(OC(=O)CCC(=O)N3CCC(Nc4ccc(S(=O)(=O)NC(=O)c5ccc(N6CCN(CC7=C(c8ccc(Cl)cc8)CC(C)(C)CC7)CC6)cc5Oc5cnc6[nH]ccc6c5)cc4[N+](=O)[O-])CC3)OC3OC4(C)CCC1C32OO4 (centres unmarked) — result for “early apoptotic cells”: 61% (THP-1; annexin V/PI flow cytometry, measured: annexin V+/PI-; 3.2 µM, 24 h).
The selectivity ratio of CSCC[C@H](NC(=O)[C@@H](NC(=O)[C@H](CCC(N)=O)NC(=O)[C@H](CO)NC(=O)[C@@H](N)C(C)C)[C@@H](C)O)C(=O)N[C@@H](CCCNC(=N)N)C(=O)N[C@@H](CCC(N)=O)C(=O)N[C@H](C(=O)N[C@@H](C)C(=O)N[C@H](C(=O)N1CCC[C@H]1C(=O)N[C@@H](CC(C)C)C(=O)N[C@@H](CC(C)C)C(=O)N[C@@H](Cc1c[nH]c2ccccc12)C(=O)N[C@@H](Cc1ccccc1)C(=O)N[C@@H](Cc1c[nH]c2ccccc12)C(=O)N[C@H](C(=O)NCC(=O)N[C@@H](CO)C(=O)N[C@@H](CC(C)C)C(=O)NCCOCCOCCOCCOCCOCCOCCOCCOCCOCCOCCOCCOCCC(=O)N[C@@H](CS)C(N)=O)[C@@H](C)O)C(C)C)[C@@H](C)O is reported as 6.2 ± 2.5 (H322; phage binding; 10 min, 37 °C; baseline: control phage).
O=C(C[Se]C(=O)c1cccnc1Nc1cccc(C(F)(F)F)c1)Nc1cccc(C(F)(F)F)c1 has a CC50 of 6.36 µM (NCI60 NSCLC subpanel; NCI60 five-dose screen).
With Cc1cccc(-c2cccc(C)n2)n1.Cc1cccc(-c2cccc(C)n2)n1.F[P-](F)(F)(F)(F)F.F[P-](F)(F)(F)(F)F.[Ru+2].c1ccc2c(-c3nc4c5cccnc5c5ncccc5c4[nH]3)cccc2c1 the phototoxicity index was 15 (SK-MEL-28; 1% O2, together with: blue light 453 nm, 100 J/cm2; baseline: dark over light EC50).
CC(C)(C)C(=O)OCOP(=O)(OCOC(=O)C(C)(C)C)C1CCCN(O)C1=O (centres unmarked) has a TGI of 1.14 µM (SK-MEL-28).
C#CCN1C(=O)C(CC#C)(C(=O)OCC)Oc2ccccc21 (centres unmarked) has an inhibition of 0.06 ± 0.34% (HEK293T; cytotoxicity, CCK-8; 1.56 µM, 72 h).
For Cc1c(Cl)cccc1Nc1ccccc1C(=O)[Se]CC(=O)Nc1cccc(C(F)(F)F)c1, the CC50 was 6.05 µM (NCI60 NSCLC subpanel; NCI60 five-dose screen).
The selectivity index of O=C1C=CC(=O)c2c(O)cccc21 is reported as 3.31 (MOLT-3; XTT; baseline: IC50 MRC-5 over IC50 MOLT-3).
COc1ccccc1-c1ccncc1C(=O)Nc1nnc(OCc2ccc(Cl)cc2)s1 has a colony survival of 88.9% (RPE-1 BRCA1 WT parental; 0.5 µM, run 1; baseline: untreated).
For CC(=O)NCSC[C@H](NC(=O)[C@@H]1CCCN1C(=O)[C@H](C)NC(=O)[C@@H](NC(=O)CNC(=O)[C@@H](NC(=O)[C@H](Cc1c[nH]c2ccccc12)NC(=O)[C@H](C)NC(=O)CNC(=O)[C@H](CO)NC(=O)[C@H](C)NC(=O)[C@@H]1CCCN1C(=O)[C@H](Cc1c[nH]c2ccccc12)NC(=O)[C@H](C)NC(=O)[C@H](C)NC(=O)[C@@H](N)Cc1ccc(O)cc1)[C@@H](C)O)[C@@H](C)O)C(=O)N[C@@H](CO)C(=O)N[C@@H](C)C(=O)NCC(=O)N[C@H](C(=O)NCCOCCOCCOCCOCCOCCOCCOCCOCCOCCOCCOCCOCCC(=O)N[C@@H](CS)C(N)=O)[C@@H](C)O, the selectivity ratio was 0.33 ± 0.12 (H2347 lung adenocarcinoma; cell binding, phage binding, measured: output/input phage; 10 min, 37 °C; baseline: control phage).
With CC(C)CC(O)(CC(C)C)c1cn(C(=O)N2CCCC2)nn1 the protein level was 1.08 (mouse T-cells; SILAC proteomics, measured: LARP1; 1 nM, 6 h, unit not given; baseline: DMSO).
For NC(=S)N/N=C/c1ccc(OCc2cccc(F)c2)cc1, “catalase activity (OD450)” read 0.301 a.u. (IMR-32; 500 µg/mL, 24 h; higher = more activity).
CC(C)C[C@H](NC(=O)[C@H](CC(=O)O)NC(=O)CNC(=O)[C@@H](N)CCCNC(=N)N)C(=O)N[C@@H](C)C(=O)N[C@H](C(=O)N[C@@H](CC(C)C)C(=O)N[C@@H](CCCNC(=N)N)C(=O)N[C@@H](CCC(N)=O)C(=O)N[C@@H](CC(C)C)C(=O)N[C@@H](C)C(=O)N[C@@H](CCC(N)=O)C(=O)N[C@@H](CCC(=O)O)C(=O)N[C@@H](CC(=O)O)C(=O)NCC(=O)N[C@H](C(=O)N[C@H](C(=O)NCC(=O)N[C@H](C(=O)N[C@@H](CCCNC(=N)N)C(=O)NCCOCCOCCOCCOCCOCCOCCOCCOCCOCCOCCOCCOCCC(=O)N[C@@H](CS)C(N)=O)C(C)C)C(C)C)C(C)C)[C@@H](C)O has a selectivity ratio of 2.6 ± 0.49 (H1155 lung large cell carcinoma; cell binding, phage binding, measured: output/input phage; 10 min, 37 °C; baseline: control phage).
The inhibition of C=CCN1C(=O)C(CC=C)(C(=O)OCC)Oc2cc(F)ccc21 (centres unmarked) is reported as 0.02 ± 0.19% (HEK293T; cytotoxicity, CCK-8; 3.13 µM, 72 h).
The IC50 of Cc1cc(Oc2nc(N3CC[C@@H](c4ccncc4)C3)ncc2F)[nH]n1 is reported as 53.7 µM (lung cancer cell lines; cell proliferation; average over lines).
The PI-positive cells of COc1ccc(NC(=O)c2ccc3[nH]c(-c4ccc(N(C)C)cc4)nc3c2)cn1 is reported as 219 count and 202 count and 282 count (HCT116; IncuCyte; concentration not given, 40 (unit not given)).
O=C(O)c1ccc(-c2nc(-c3ccccc3Cl)c3sccn23)cc1: “CD235a fluorescence intensity” 0.44 fold change and 0.6 fold change and 0.74 fold change (K562; erythroid differentiation, flow cytometry; 0.1 mM, 48 h; baseline: untreated).
O=C(C[Se]C(=O)c1ccccc1Nc1cccc(C(F)(F)F)c1)Nc1cccc(C(F)(F)F)c1 gave a CC50 of 8.87 µM (NCI60 ovarian subpanel; cytotoxicity, inhibitor; five-dose).
With [Cl-].[Cl-].[Ru+2].c1ccc(-c2ccccn2)nc1.c1ccc(-c2ccccn2)nc1.c1ccc2cc3nc4c5cccnc5c5ncccc5c4nc3cc2c1 the EC50 was 0.104 ± 0.001 µM (SK-MEL-28; cell viability; normoxia, together with: blue light 453 nm, 100 J/cm2).
The CC50 of O=C(C[Se]C(=O)c1cc2ccccc2o1)Nc1cccc(C(F)(F)F)c1 is reported as 5.91 µM (NCI60 NSCLC subpanel; NCI60 five-dose screen).
CC[C@H](C)[C@H](NC(=O)[C@H](C)NC(=O)CNC(=O)[C@H](Cc1ccccc1)NC(=O)[C@H](CC(N)=O)NC(=O)[C@H](CC(N)=O)NC(=O)[C@H](CO)NC(=O)[C@H](CO)NC(=O)[C@H](Cc1c[nH]cn1)NC(=O)[C@@H](NC(=O)[C@H](CC(C)C)NC(=O)[C@H](Cc1ccccc1)NC(=O)[C@H](CC(N)=O)NC(=O)[C@H](C)NC(=O)[C@H](CC(C)C)NC(=O)[C@H](CCCNC(=N)N)NC(=O)[C@H](CCC(N)=O)NC(=O)[C@@H](NC(=O)[C@H](C)NC(=O)[C@@H]1CSSC[C@H](NC(=O)[C@@H](N)CCCCN)C(=O)N[C@@H](CC(N)=O)C(=O)N[C@@H]([C@@H](C)O)C(=O)N[C@@H](C)C(=O)N[C@@H]([C@@H](C)O)C(=O)N1)[C@@H](C)O)C(C)C)C(=O)N[C@@H](CC(C)C)C(=O)N[C@@H](CO)C(=O)N[C@@H](CO)C(=O)N[C@H](C(=O)N[C@@H](CC(N)=O)C(=O)N[C@H](C(=O)NCC(=O)N[C@@H](CO)C(=O)N[C@@H](CC(N)=O)C(=O)N[C@H](C(=O)N[C@@H](Cc1ccc(O)cc1)C(N)=O)[C@@H](C)O)C(C)C)[C@@H](C)O: “Pearson colocalization coefficient” about 0.5 (RIN-m5F; colocalization microscopy, measured: lysosomes (LAMP1); 10 µM, 24 h, mostly perinuclear).
For O=C(C[Se]C(=O)c1cccs1)Nc1cccc(C(F)(F)F)c1, the mean TGI was 3.31 µM (NCI60 renal subpanel; total growth inhibition, inhibitor; five-dose).
CCOC(=O)C1(Cc2ccccc2)Oc2cc(F)ccc2N(Cc2ccccc2)C1=O (centres unmarked) gave an inhibition of 0% (HEK293T; cytotoxicity, CCK-8; 0.78 µM, 72 h).
